Results collected from several papers.
Each numbered part is a random draw from the data of one study; scales do not carry over between parts.

Set 1 — method: protein binding microarray; molecule type: double-stranded DNA, one strand shown; medium: in vitro; tested at: not given; baseline: not given; reading: higher = stronger binding
Target: Histone acetyltransferase KAT6A, both winged helices, GST fusion (KAT6A, Homo sapiens, UniProt Q92794, residues 1-181)
Notes: 8-mer, flanks averaged, mean of 2 arrays, mostly near background
Target sequence (chain): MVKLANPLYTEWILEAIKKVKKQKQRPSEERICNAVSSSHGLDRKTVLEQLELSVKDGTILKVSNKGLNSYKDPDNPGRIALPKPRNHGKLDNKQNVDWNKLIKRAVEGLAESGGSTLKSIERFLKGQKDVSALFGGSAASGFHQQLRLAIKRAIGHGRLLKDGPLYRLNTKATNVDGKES
Sequence	E-score
CGGCTAGA	0.157
CCATACCG	0.164
TGCCTGAA	-0.107
ACTTATCC	-0.00756
GTCGTTGA	-0.125
AAAGCTGT	-0.0208
CCGCGTGC	0.277
CAATATGA	-0.043
AGATTGTC	0.0141
ATGAGCTC	-0.113
ACATCCCA	-0.162
GAATGTAA	-0.0877
ACATTATG	0.074
CAGCTCAG	-0.123
CCCCAGGC	-0.191
GCTTTTCA	0
ACCCGAGA	-0.0237
AAGCTATG	-0.066
AAAGACTA	-0.0752
CGTCCCCC	0.0635
GGGGATGA	-0.138
CCGCACTA	0.103
AAGTTGCT	-0.175
TCTTCCAA	-0.154
CGGACCAG	0.181

Set 2 — method: universal PBM; molecule type: double-stranded DNA, one strand shown; medium: in vitro; tested at: 600 nM; reading: higher = stronger binding
Target: Sal-like protein 4, full length isoform A (SALL4, Homo sapiens, UniProt Q9UJQ4, residues 1-1053)
Chain of UniProt Q9UJQ4 (whole entry, looked up): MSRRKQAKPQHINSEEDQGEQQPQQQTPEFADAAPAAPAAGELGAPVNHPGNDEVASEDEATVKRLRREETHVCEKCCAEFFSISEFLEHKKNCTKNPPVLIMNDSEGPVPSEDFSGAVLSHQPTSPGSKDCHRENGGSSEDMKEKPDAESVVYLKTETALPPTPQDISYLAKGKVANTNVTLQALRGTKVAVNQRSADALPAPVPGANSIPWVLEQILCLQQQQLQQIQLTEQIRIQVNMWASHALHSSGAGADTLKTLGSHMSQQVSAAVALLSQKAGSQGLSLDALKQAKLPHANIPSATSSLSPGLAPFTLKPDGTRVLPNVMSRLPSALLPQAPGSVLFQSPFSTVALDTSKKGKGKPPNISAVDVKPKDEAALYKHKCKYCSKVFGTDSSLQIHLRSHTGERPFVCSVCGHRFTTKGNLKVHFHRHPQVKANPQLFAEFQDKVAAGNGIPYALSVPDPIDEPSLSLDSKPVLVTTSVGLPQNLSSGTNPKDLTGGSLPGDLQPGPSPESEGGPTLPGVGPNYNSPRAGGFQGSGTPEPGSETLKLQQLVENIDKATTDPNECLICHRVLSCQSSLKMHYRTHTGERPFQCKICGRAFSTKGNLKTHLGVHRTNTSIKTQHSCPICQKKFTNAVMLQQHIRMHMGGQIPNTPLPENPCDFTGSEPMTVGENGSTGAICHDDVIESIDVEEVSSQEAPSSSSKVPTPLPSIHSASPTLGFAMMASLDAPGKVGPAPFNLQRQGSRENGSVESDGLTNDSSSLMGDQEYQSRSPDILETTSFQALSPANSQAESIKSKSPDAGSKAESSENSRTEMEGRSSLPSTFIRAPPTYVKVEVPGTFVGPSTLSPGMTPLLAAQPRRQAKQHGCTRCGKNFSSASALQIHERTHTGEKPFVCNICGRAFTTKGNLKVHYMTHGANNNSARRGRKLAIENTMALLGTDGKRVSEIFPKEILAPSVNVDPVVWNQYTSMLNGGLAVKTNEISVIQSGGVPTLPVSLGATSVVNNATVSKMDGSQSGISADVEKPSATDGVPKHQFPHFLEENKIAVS
Notes: 8-mer, flanks averaged, mean of replicates
Sequence	E-score
ATGTCAAC	0.244
CTAGGCAG	-0.211
AAGCTCGC	-0.291
GAGATTGA	0.123
CCGGACGC	-0.318
AATATCGT	0.326
AACGATCG	0.08
CTGAAAAC	0.146
ACCGCCGG	-0.373
ATGTAATG	0.242
ATTTACGA	0.235
CACACAAG	0.101
GCCCATGA	-0.232
AGTCCCAC	-0.212
AAATTCTG	0.223
CGGAGCGC	-0.323
CGCCGCTC	-0.324
CGACACCC	-0.234
ACAGCCGA	-0.153
AATTTCAG	0.203
AACCTAGA	0.0147
AATGGAAG	0.0594
CATTCCAG	0.0322
GACCCCTC	-0.268
CGCGCTGA	-0.334

Set 3 — method: RNA Bind-n-Seq; molecule type: RNA; medium: in vitro; tested at: 365 nM; baseline: no-protein control; reading: higher = stronger binding
Target: RNA binding protein fox-1 homolog 2, RRM domain, GST-SBP tag (RBFOX2, Homo sapiens, UniProt O43251-10, residues 100-194)
Notes: natural RNA segment, single round, ends assumed
Construct (chain): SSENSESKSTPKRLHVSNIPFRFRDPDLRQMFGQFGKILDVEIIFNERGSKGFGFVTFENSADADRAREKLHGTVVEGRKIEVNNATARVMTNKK
Sequence	RBNS enrichment (R)
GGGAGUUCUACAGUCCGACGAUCGGCCUACCCCCCAUAUGUCCUCAGAGAGGCUGAGUGUCCCCUCCAGGCAGUCAUGGGCCCUGAGGCCCCUCCUGCCUGGCCCUGCUCCCCAGUGGGGAGGUGACUGUGUUUGGAAUUCUCGGGUGCCAA	0.237
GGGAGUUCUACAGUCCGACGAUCCCGCUGGUUGGUACACUGAUUUCCAGGAAAAGCCCCAGAAGCAGUAGAGGGAGAGCCAUGUACUUGGGAGUAGGCUGAAGUACCUAACAGUGUAGGGUAAAGAACAGAAUUGGAAUUCUCGGGUGCCAA	1.11
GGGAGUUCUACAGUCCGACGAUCCCAUGAUUUUCCUUCAUGAUGUACCAUGUUUAACUUUCAUGUAUUAUUCUGCAAACUUGGUAGGCUGUUGGAUGUUAUAUUGCCCAUGUGCUUUACAGUGGGCAAUGUGAUGGAAUUCUCGGGUGCCAA	0.482
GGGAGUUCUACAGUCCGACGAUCUGGAUGCAAGAUAGAUACUAUAUUAAACUGUACUGUUAUUUAAGAUGUAAUAAAGCAGUUUGACAUGGGGACUUUGGUGUGGUGAUUAUUUACGGGUCCACUUCCAGUUUUGGAAUUCUCGGGUGCCAA	0.809
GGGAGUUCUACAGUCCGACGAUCGGCUAAUUUUUGUAUUUUUUGUAGAGACGGGGUUUUGCCAUGUUGCCAAGGCUGGUUUCAAACUCCUGGACUCAAGAAAUCCACCCACCUCAGCCUCCCAAAGUGCUAGGUGGAAUUCUCGGGUGCCAA	0.426
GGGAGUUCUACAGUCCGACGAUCACUGCUGUUCUGGAGUAGGGUUCCAUCUCCCAUUUCUUCCAGCUCUGCCAAGUUGGCCCUCCCUGCUCUCGAGUGUUCCUUUCUUGAGACCUCAGGGUGCCCAGGUCCUGUGGAAUUCUCGGGUGCCAA	0.404
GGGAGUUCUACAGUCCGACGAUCUCGAUUGUGGUGUCUUGGCGACUAAUCAGUUUCAUUGUAUAACCAGCCAGAUCUUCACCUCUUCUUCCGUACGUGACCGCAAGUCCCUGGAACGAGGCAUCUGGAGCUUCUGGAAUUCUCGGGUGCCAA	0.276
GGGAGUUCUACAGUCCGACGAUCAGGGAGAGCCAAUGGCCUCUGGUAGCCUUAAGCCCAAAGGGCAGUGGGAAUGUCCCCUGCCCCAACCAUCGGGUGGAGCUCCUGCUGGGCUAUGGGGAAGGGAGGUUGUGUGGAAUUCUCGGGUGCCAA	0.697
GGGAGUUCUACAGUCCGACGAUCAAAAAAACAGUAGUGUUAAAAAUCUUUGUUGUGGUUUGAGCAUCUUUGCUGCUUUUGGAUUGAGAUGGCGAAUCAAGGCUUCACUUCCUCUCUCUUCUGUCUUUAGAAAGUGGAAUUCUCGGGUGCCAA	0.367
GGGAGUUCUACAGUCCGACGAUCGGUGGUGGUGACGUGAGGGCUGUGAAGGAUCCAGAGACAAGACUUAGAUGUUUCGUUCAUUCACUCACUCAUUCAGUUACUCCUAAGACUUUUCAGUUUCAUAAGGAAGAUGGAAUUCUCGGGUGCCAA	0.467
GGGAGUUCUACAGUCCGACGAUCAGCCUGAAACGCACCGCUCCUGCGUGCGCCCCCACCUGGUCCCCGGAUGCCCCCACCACCUGGACAGAGGCCACACUGACUGCCCACCCAGCUGUGGCGGGAGGUGCAGAUGGAAUUCUCGGGUGCCAA	0.191
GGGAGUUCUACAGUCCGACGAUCACAGCAGGGCCACCUUGAUGCAGGCUGGAAUGUUAUCCCUGGGGUGUGCUUGGACCCCACCUGCUUUCUUUCUCUCCUGCCCCUCCCCUACUCUCACUGUAAUUUAUGGAUGGAAUUCUCGGGUGCCAA	1.28

Set 4 — method: aptamer microarray, sandwich; molecule type: DNA with 2'F-ANA; medium: in vitro; tested at: 200 nM; added: Cy3 exosite-II aptamer, 400 nM; reading: higher = stronger binding; sequence: GGTTGGTGTGGTTGG
Target: Prothrombin, mature alpha-thrombin (F2, Homo sapiens, UniProt P00734)
Notes: whole 15-mer aptamer, many near background
Modification	mean fluorescence intensity [a.u.]
2'F-ANA at 1 2 3 5 8 10 12 13 15	47.9
2'F-ANA at 1 3 4 5 6 9 10 11 12 13 15	51.2
2'F-ANA at 2 3 4 5 6 10 12 13 14	44.5
2'F-ANA at 2 4 5 7 8 12	192
2'F-ANA at 1 3 4 5 6 8 13 14 15	61.7
2'F-ANA at 2 3 4 7 9 11 12 14	295
2'F-ANA at 1 2 6 7 9 12 15	261
2'F-ANA at 3 8 9 11 12 13 15	1110
2'F-ANA at 1 2 4 5 6 8 13	52.7
2'F-ANA at 2 5 10 14	46.1
2'F-ANA at 1 2 7 8 10 13 15	50.8
2'F-ANA at 1 2 7 14 15	70.3
2'F-ANA at 1 2 6 7 8 11 13 14 15	94.2
2'F-ANA at 3 6 7 8 10 11 12 13 14 15	399
2'F-ANA at 2 5 6 7 9 11 13 14	45.5
2'F-ANA at 1 4 5 9 11 12 13	60.3
2'F-ANA at 2 6 7 8 11 12 13 14	162
2'F-ANA at 2 3 5 8 9 13 15	81.7

Set 5 — method: RNA Bind-n-Seq; molecule type: RNA; medium: in vitro; tested at: not given; baseline: input RNA pool; reading: higher = stronger binding
Target: RING finger protein unkempt homolog, zinc fingers 1-6, GST-SBP tag (UNK, Homo sapiens, UniProt Q9C0B0, residues 30-357)
Notes: RNA with constant flanks, human and mouse sites, ends assumed
Target sequence (chain): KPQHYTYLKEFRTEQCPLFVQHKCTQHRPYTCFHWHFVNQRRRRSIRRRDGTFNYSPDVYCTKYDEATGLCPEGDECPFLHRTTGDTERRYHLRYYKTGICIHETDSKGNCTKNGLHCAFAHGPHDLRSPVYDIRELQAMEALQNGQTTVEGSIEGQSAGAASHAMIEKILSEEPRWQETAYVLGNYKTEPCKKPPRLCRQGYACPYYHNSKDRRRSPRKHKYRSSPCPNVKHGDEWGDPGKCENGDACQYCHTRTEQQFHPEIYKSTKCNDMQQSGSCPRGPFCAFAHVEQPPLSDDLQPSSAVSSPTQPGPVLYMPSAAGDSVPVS
Sequence	bound/input enrichment [ratio]
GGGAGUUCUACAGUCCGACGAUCCGGAAAUAAUGCAAAAGGUGUCCCAAGGCUCCUGACCAGUGAACAAAGAUUUGAGAAAGACAGCCAAGCUCAUGUUUUCUCCUGAUCAAGAAAAUCAUCCAUCUAAAGCACCAGUAAAAUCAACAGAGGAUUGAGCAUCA	0.194
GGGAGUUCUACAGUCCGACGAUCCCGACUUUGCUUUUGCAGGUCUUUCACUGCAGAUGGGGCUGCUGUGGGAGUUGGGACUUGUUUGUUUUCCUUUUUGAGUUCACGUUGGAUCCUUUCUUGUACAACUUCUGCGGAAGGACACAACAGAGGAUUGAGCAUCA	0.0769
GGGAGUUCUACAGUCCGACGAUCUCAAGGGCACGAGCAUCGGCCAUGCCUUUCUUGGACAUCCAGAAAAGGUUCGGCCUUAACAUAGAUCGAUGGUUGACAAUCCAGAGUGGUGAACAGCCCUACAAGAUGGCUGGUCGAUGCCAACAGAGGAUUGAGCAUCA	0.19
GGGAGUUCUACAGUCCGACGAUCAUCCCAGAGAACGCCAUAUUCGGUCCCUGUGUACUGAGCCAUACUUCCCUGUAUGACAGCAUAGCCUUCGUAGCCCUCAAGUCCACGGACAAGAGAACAGUACCUUACAUCUUCCGGGUACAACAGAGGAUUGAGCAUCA	0.272
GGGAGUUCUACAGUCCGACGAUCUUUGCAGUUUAUGACGGUCAUGCUGGAUCCCGAGUGGCAAAUUACUGUUCAACACAUCUAUUAGAACACAUCACCACCAAUGAAGACUUCAGGGCAGCUGACAAAUCAGGCUCUGCUCUCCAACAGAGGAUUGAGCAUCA	0.238
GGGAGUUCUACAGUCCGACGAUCAGGAGGAGGUUAAAGGGUGAGAGUGGGGUGGAAGACUGUGUCAUGGCUCUGGAGACACUGUUCAGUGUCCUGCUUUCUCUGUGCAGACUGAUGGCCCCUUACACGCCCUUUCUGACUGAGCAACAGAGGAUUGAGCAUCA	0.0603
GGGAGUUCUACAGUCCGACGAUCUAUAAUGCCUUGGAAACAAACAUUAUUCCAUCGUUUGUGCUGAUGGACAUCCAGGCUUCUACUGUGGUCACUUACGUCUAUCAACUAAUUGGAGAUGACGUCAAAGUAGAACGAAUUGAGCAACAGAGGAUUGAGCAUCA	0.125
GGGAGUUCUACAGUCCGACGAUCAGCAUAUCCAGCAGAGAUGUUCAGCCUGUCGCCUAUGAGGAGCCCAAACACUGGUGUUCGAUUGUCUACUAUGAAUUAAACAAUCGUGUUGGGGAAGCUUUUCAUGCAUCUUCUACUAGUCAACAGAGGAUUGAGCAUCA	0.154
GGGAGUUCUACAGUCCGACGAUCUGACCCUAUUUUCUUACAUGGCUCAAAUAAAACUAGUAUGCUGUUGUAUGAAUCUUUUACUGACCACACCAUCCAACUAUAAAAAUAUAACGGGACAGCUUUAAACCAAAGAUCAUGUUUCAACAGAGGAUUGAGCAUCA	0.833
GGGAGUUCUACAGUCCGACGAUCAACAGCAUCAUACAUAGUGAAUGAUGUUCAUUGGAAAAUUCUAAAAUUUGUCCUUGUCUAGGUUGAGAACUUUUACACACACUAAGAUAAAGAUAGAAAUCUGACAUGCUCACUCAAUUCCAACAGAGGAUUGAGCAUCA	0.528
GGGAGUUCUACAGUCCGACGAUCCCUAGCAGUGGGGACAUGGGAGUAAAUCAGGGAUCCGAGGAAUCUGAGAGCCACCUCUGCUCUGACAGUACCCCUAAGAUGGAAGGCCCCCAGGCAGCCUGUGGCCUGAAGCUGGCAGGACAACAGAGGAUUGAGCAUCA	0.172
